Published values from different studies.
Several values in a cell are separate wells, animals, samples, runs or records. ± gives the spread as reported.
CHEK2: Serine/threonine-protein kinase Chk2 (CHEK2, Homo sapiens, UniProt O96017)
Chain of UniProt Q9Y2J8 (whole entry, looked up): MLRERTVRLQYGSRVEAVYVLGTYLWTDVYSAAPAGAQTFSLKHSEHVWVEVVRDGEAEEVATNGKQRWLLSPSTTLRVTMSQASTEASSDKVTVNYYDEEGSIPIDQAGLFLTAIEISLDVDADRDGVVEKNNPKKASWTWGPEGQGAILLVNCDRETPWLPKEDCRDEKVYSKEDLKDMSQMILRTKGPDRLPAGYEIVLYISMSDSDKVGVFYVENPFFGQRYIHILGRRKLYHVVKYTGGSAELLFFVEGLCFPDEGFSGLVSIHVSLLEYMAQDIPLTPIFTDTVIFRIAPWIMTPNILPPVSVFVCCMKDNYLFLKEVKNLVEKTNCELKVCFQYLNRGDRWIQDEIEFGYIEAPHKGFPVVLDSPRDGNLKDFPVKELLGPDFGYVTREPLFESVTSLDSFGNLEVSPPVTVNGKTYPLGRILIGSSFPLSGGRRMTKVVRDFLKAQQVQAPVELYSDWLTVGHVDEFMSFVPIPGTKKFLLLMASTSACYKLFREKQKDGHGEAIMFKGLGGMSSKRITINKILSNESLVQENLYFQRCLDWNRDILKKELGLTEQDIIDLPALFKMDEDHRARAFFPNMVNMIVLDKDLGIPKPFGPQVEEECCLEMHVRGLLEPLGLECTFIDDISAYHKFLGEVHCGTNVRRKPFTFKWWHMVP
Chain of UniProt O96017 (whole entry, looked up): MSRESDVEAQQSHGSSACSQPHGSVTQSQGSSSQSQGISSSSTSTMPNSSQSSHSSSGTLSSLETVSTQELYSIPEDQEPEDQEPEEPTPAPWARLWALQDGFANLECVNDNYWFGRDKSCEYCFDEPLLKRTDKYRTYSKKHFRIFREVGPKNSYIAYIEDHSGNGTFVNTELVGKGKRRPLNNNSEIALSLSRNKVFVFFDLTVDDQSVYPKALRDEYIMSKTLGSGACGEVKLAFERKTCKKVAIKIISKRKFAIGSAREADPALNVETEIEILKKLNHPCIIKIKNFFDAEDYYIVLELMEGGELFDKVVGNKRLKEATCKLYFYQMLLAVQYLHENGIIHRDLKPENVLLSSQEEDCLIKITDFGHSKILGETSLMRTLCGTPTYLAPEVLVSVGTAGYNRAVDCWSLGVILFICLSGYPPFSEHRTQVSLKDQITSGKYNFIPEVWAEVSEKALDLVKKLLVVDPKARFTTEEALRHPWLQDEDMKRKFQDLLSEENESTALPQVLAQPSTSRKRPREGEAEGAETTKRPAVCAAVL
Chain of UniProt Q8K4F5 (whole entry, looked up): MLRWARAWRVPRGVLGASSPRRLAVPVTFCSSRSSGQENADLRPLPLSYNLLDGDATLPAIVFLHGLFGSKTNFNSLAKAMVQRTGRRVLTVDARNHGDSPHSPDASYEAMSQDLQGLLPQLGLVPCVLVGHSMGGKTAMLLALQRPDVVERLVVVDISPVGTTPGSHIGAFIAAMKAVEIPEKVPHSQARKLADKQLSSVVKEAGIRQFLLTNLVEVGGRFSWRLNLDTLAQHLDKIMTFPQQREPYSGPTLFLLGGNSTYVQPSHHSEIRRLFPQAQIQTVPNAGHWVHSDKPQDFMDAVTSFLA
Chain of UniProt Q13177 (whole entry, looked up): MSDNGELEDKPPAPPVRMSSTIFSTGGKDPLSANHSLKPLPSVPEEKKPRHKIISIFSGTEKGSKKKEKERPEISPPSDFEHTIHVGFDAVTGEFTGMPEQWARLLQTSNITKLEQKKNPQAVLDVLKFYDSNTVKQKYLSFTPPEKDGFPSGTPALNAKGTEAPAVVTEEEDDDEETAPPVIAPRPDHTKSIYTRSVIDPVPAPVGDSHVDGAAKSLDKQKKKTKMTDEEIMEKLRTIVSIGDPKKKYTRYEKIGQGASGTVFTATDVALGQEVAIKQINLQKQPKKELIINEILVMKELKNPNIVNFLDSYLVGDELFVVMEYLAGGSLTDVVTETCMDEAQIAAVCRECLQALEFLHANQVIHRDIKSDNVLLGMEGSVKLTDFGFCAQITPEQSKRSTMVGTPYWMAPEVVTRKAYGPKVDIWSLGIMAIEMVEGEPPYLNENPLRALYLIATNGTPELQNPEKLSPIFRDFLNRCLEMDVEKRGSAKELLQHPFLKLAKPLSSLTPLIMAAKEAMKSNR
Chain of UniProt P19784 (whole entry, looked up): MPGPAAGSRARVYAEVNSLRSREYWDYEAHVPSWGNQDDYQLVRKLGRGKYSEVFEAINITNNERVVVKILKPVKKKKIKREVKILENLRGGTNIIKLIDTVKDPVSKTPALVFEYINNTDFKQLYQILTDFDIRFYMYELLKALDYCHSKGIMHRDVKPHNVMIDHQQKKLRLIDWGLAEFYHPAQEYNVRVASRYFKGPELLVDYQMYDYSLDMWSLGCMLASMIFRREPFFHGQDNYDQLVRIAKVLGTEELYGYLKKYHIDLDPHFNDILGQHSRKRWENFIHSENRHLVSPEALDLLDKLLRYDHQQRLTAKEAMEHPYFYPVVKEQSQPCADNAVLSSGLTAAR

CC(C)CC(O)(CC(C)C)c1cn(C(=O)N2CCCC2)nn1 — activity ratio-of-ratios (sn-1-specific diacylglycerol lipase ABHD11 (Mus musculus, UniProt Q8K4F5); probe labelling, inhibitor, refers to: Abhd11; mouse, brain; i.p., 0.8 mg/kg, 4 h, protein level; reference: treated over vehicle mice, lower = stronger inhibition): 3.17
CCOc1ccc(CNCCc2ccc3c(c2)OCO3)cc1 — translation activity (Trypanosoma cruzi; reporter mRNA translation, inhibitor, refers to: Renilla luciferase mRNA; cell-free extract; concentration not given, test 1; reference: positive over negative control): 101%
Cc1sc2c(c1C)C(c1ccc(Cl)cc1)=N[C@@H](CC(=O)OC(C)(C)C)c1nnc(C)n1-2 — TΔS (Bromodomain testis-specific protein, BD1 (BRDT, Homo sapiens, UniProt Q58F21); isothermal titration calorimetry; 15 °C, reverse titration): 0.56 kcal/mol
N[C@H](C(=O)N1CCCC1)C1CCN(c2nccc3c(-c4ncc(Cl)cc4Cl)cccc23)CC1 — kcat (Protein-arginine deiminase type-2 (PADI2, Homo sapiens, UniProt Q9Y2J8); enzyme activity; 24 µM, high-affinity site, with: Ca2+ 1.5 mM): 0.261 s⁻¹ and 0.182 s⁻¹
Nc1ccc(/C=C/C(=O)N2CCc3c(oc4c(-c5ccc(F)cc5)cc(-c5ccc(C(=O)N6CCC(F)(F)CC6)cn5)cc34)C2)cn1 — remaining binding (Serine/threonine-protein kinase PAK 2 (PAK2, Homo sapiens, UniProt Q13177); binding, competition with immobilised ligand; 1 µM): 91%
CC(C)[C@H]1NC(=O)C[C@H]2/C=C/CCSSC[C@@H](NC1=O)C(=O)N[C@H](Cc1cccc3ccccc13)C(=O)NCC(=O)O2 — inhibition (Casein kinase II subunit alpha', with CK2 beta (CSNK2A2, Homo sapiens, UniProt P19784); 10 µM): -3.4%
C#CCN(Cc1ccc2nc(C)[nH]c(=O)c2c1)c1ccc(C(=O)N[C@@H](CCC(=O)OC)C(=O)OC)cc1 — MIC90 (Mycobacterium tuberculosis; bacterial growth, inhibitor; H37Rv pptT conditional knockdown; PptT depleted, ATc withheld): > 100 µM
CCCn1ncc(CN2CCCC(C(=O)c3cccc(OC)c3)C2)c1C (centres unmarked) — translation activity (Trypanosoma cruzi; reporter mRNA translation, inhibitor, refers to: Renilla luciferase mRNA; cell-free extract; concentration not given, test 2; reference: positive over negative control): 102% and 113%
O=C1NC2(CC2)COc2ncc(F)cc2[C@H]2COCCN2c2ccn3ncc1c3n2 — organ-to-body weight ratio (Sprague-Dawley rat, female, adrenals; oral, 20 mg/kg/day, 4 weeks dosing, end of recovery): 0.024 ± 0.002%
COc1ccccc1-c1n[nH]c2nc(NC3CCN(C(=O)Cc4ccc(F)cc4F)CC3)ncc12 — relative abundance (bead binding, competition bead pull-down, refers to: LINJ.30.2340; Leishmania donovani axenic amastigote extract; 10 µM; reference: vehicle): 1.04
CS(C)(=O)=Nc1ccc(-c2ccc(-c3nc4cc(O[C@@H]5CO[C@H]6[C@@H]5OC[C@H]6O)[nH]c4cc3F)cc2)cc1 — inhibition (Hepatocyte growth factor receptor (MET, Homo sapiens, UniProt P08581, Y1230C); enzyme activity, inhibitor; 10 µM): -31%
O=C(NC1CCN(c2ncnc3[nH]cnc23)CC1)c1cccc(NS(=O)(=O)c2ccc(C(F)(F)F)cc2)c1 — inhibition (Replicase polyprotein 1ab, nsp14 (rep, Human coronavirus 229E, UniProt P0C6X1); enzyme activity; 0.01221 µM): 7.54%
O=C1NC(=O)c2c1c1cc(F)c[n+]3c1c1c2c2cc(O)ccc2[n]1[Ru-4]312([N]=C=S)[S+]3CC[S+]1CC[S+]2CC3 (centres unmarked) — remaining activity (CHEK2; enzyme activity; 100 nM, human enzyme, with: 10 µM ATP; reference: untreated): 34%
CN(C)[C@H]1C[C@@]23CC[C@@]4(O2)C(=CC[C@]2(C)[C@@H](c5ccc6ccncc6c5)CC[C@H]24)C=C3[C@@H](O)[C@@H]1O — inhibition (CHEK2; ATP probe labelling, inhibitor, KiNativ profiling; 1 µM): -2.5%

For quick reference, copied from above:
O=C1NC(=O)c2c1c1cc(F)c[n+]3c1c1c2c2cc(O)ccc2[n]1[Ru-4]312([N]=C=S)[S+]3CC[S+]1CC[S+]2CC3 (centres unmarked) — remaining activity (CHEK2; enzyme activity; 100 nM, human enzyme, with: 10 µM ATP; reference: untreated): 34%
C#CCN(Cc1ccc2nc(C)[nH]c(=O)c2c1)c1ccc(C(=O)N[C@@H](CCC(=O)OC)C(=O)OC)cc1 — MIC90 (Mycobacterium tuberculosis; bacterial growth, inhibitor; H37Rv pptT conditional knockdown; PptT depleted, ATc withheld): > 100 µM
